Measured values from different studies.
Compare with care: the assays were run in different laboratories. ± gives the spread as reported. Bridges are numbered along the chain shown (N, C = ends). Where no end group is shown, it is not given here.

O=C1NC(=O)C(c2ccccc2)(c2ccccc2)N1
ED50 (maximal electroshock seizure protection; C57BL/6J male mouse; oral, 2 h): ~5 mg/kg

NNC1=NC(=O)C(=C2c3ccccc3-c3nc4cc(F)ccc4nc32)S1
blood glucose (mouse, STZ-induced diabetes; oral, 25 mg/kg, day 3): 386 ± 61.2 mg/dL

O=c1cc(N2CCOCC2)oc2c(-c3ccccc3)cccc12
Akt phosphorylation (Western blot; mouse myocardial infarction, myocardium; intraperitoneal, 1.5 mg/kg/day, with: PEG-exendin-4): inhibited

CC(C)(O)c1ccccc1-c1ccc2[nH]c(/C=C/c3ccc(C(F)(F)F)cc3)nc2c1
dose increasing heat pain threshold (human; baseline: placebo): ≥ 10 mg

CC(C)[C@H](NC(=O)[C@@H]1CSSC[C@H](NC(=O)[C@H](CC(=O)O)NC(=O)[C@@H]2CCCN2C(=O)[C@@H](NC(=O)[C@@H](N)CCC(=O)O)[C@@H](C)O)C(=O)N[C@@H](Cc2ccccc2)C(=O)N[C@@H](Cc2c[nH]c3ccccc23)C(=O)N[C@@H](CCCCN)C(=O)N[C@@H](Cc2ccc(O)cc2)C(=O)N1)C(=O)O
ICP increase AUC (male Wistar rats, anaesthetised; intracavernous, 1 nmol per rat): 268 ± 13.5 mmHg·s

CC1(C)CCC(CN2CCN(c3ccc(C(=O)NS(=O)(=O)c4ccc(NCC5CCOCC5)c([N+](=O)[O-])c4)c(Oc4cnc5[nH]ccc5c4)c3)CC2)=C(c2ccc(Cl)cc2)C1
EC50 (cell viability; canine leukemia cells, human): 1650 nM

Cc1cc(C)c(/C=C2\C(=O)Nc3ccccc32)[nH]1
tumour volume (MRI; human; dose not given, 9.5 months): 80 cm³

Cc1c(C(=O)O)ccc2c3n(nc12)[C@@H]1[C@H](C3)N(CC2CC2)[C@@]2(C(=O)Nc3cc(Cl)ccc32)[C@H]1c1cccc(Cl)c1F
maximum tumour shrinkage (RECIST v1.1; human; 80 mg reduced to 45 mg every 3 weeks): -73%

CCCOc1ccc(S(=O)(=O)NCCC2CCCN2C)cc1-c1nc2c(CCC)nn(C)c2c(=O)[nH]1 (centres unmarked)
maximal VO2 (ramp cycle exercise test; human adolescents after Fontan palliation; oral, 87.5 mg once daily, day 5): 27.1 ± 5 mL/min/kg

CS/C(S)=N/CCCC[S+](C)[O-] (racemic)
mRNA fold change (RT-PCR, measured: Abcb1b; rat, liver; oral gavage, 200 mg/kg, 96 h, dosed for four days; baseline: vehicle): 2.69

COc1ccc2c(c1)c(CC(=O)O)c(C)n2C(=O)c1ccc(Cl)cc1
cytokine level (multiplex bead immunoassay, measured: IL-13; CD-1 mice, serum; ip, 20 mg/kg, three-injection regimen, with: LPS 3 mg/kg): 104 ± 9.5 pg/mL

C[C@H]1C[C@H]2CSC(N)=N[C@@]2(c2nc(NC(=O)c3ccc(OC(F)F)cn3)cs2)CO1
change from baseline (measured: CSF Aβ1–38; healthy adults; 50 mg once daily, 14 days, day 15; baseline: placebo-adjusted baseline): -57.2%

CC(C)NCCCC[C@H](NC(=O)[C@H]1CCC(=O)N[C@@H](Cc2ccccc2)C(=O)N[C@@H](Cc2ccc(O)cc2)C(=O)N[C@@H](CCCCNC(C)C)C(=O)N[C@H](CCCNC(=N)N)C(=O)N[C@@H](Cc2ccc3ccccc3c2)C(=O)NCC(=O)N1)C(N)=O
maximum CD34+ cell count (small cell lung cancer patients; subcutaneous, 20 mg/day, second cycle, with: etoposide and carboplatin; baseline: baseline): 22.5 fold

CC(=O)Nc1cccc(OCc2nnc(SCc3cccc(C(F)(F)F)c3)o2)c1
immobility duration decrease (forced swimming test; mice; 40 mg/kg, 0.5 h; baseline: control): 46.8%

Cn1cnc2ncn(Cc3nc(CCc4ccc(Cl)cc4)no3)c(=O)c21
EC50 (AITC-evoked nocifensive behaviour, antagonist; rat, plasma unbound; oral, with: AITC): 62 ± 26 nM

CC(=O)Nc1cccc(OCc2nnc(SCc3ccc(F)cc3)o2)c1
immobility duration decrease (forced swimming test; mice; 40 mg/kg, 0.5 h; baseline: control): 47.5%

CCO[C@H](COc1ccc(C(F)(F)F)cc1)CSc1ccc(OCC(=O)O)c(C)c1
dose (circulating triglycerides at vehicle level; Sprague Dawley rats, diet-induced dyslipidemia; with: ACC inhibitor 30 mg/kg): ≥ 5 mg/kg

AGEDPHGYFLPGQFA
time of peak neutrophilia (peptide, C57BL/6J mouse, zymosan peritonitis; ip, 8 pg/mouse, dosed 1 h before zymosan, with: zymosan 10 µg): 2 h

NCCCC[C@@H]1NC(=O)[C@@H](Cc2c[nH]c3ccccc23)NC(=O)[C@H](c2ccccc2)NC(=O)[C@@H]2C[C@@H](OC(=O)NCCN)CN2C(=O)[C@H](Cc2ccccc2)NC(=O)[C@H](Cc2ccc(OCc3ccccc3)cc2)NC1=O
ED50 (measured: GH AUC; healthy volunteers; subcutaneous, with: GHRH): 70.7 µg

Oc1cc2c(cc1O)C(c1ccccc1)CNCC2 (centres unmarked)
accuracy (five-choice serial reaction time task; male Lister hooded rat, low performers; intraperitoneal, 6 mg/kg): 70.9 ± 1.89%

ILPWKWPWWPWRR
leakage (carboxyfluorescein release; peptide, EYPG vesicles; 10 µg/mL, 250 s, pH 7.4, 25 °C; baseline: Triton X-100): 18%

OC(CCN1CCCCC1)(c1ccccc1)C1CC2C=CC1C2 (centres unmarked)
EC50 (0-back reaction time; healthy elderly human, plasma): 6.72 ng/mL

neuropeptide Y
heart rate response resolution time (Sprague Dawley rat, urethane-anaesthetised; iv, 5 nmol): 18.5 ± 4 min

CRWYDENAC (disulfide 1-9 (inferred)) (Cy7-labelled, cyclic, disulfide)
time to peak PA signal (photoacoustic imaging; mouse, subcutaneous HCCLM3 tumour; iv, 20 nM): 24 h

hen egg-white lysozyme
highest concentration without response (IL-2 secretion; Iso.210 T cell hybridoma, B10.BR mouse; overnight, with: M12.C3.F6 antigen-presenting cells): > 30 µM

O=C1CCc2ccc(OCc3nnc(SCc4ccc(Cl)cc4)o3)cc2N1
immobility duration decrease (forced swimming test; mice; 40 mg/kg, 0.5 h; baseline: control): 57.1%

CCOc1nc2cccc(C(=O)O)c2n1Cc1ccc(-c2ccccc2-c2nn[nH]n2)cc1
time to heme-positive stool (mouse DSS colitis; transanal, 10 mg/kg/day): 8 days

DWFKAFYDKVAEKFKEAF (N-acetyl, C-amide)
plasma inflammatory index (monocyte chemotactic activity; peptide, human aortic endothelial cells, female apoE-null mice; retro-orbital, 100 µg 3 times weekly for 15 days; baseline: human LDL): decreased

CCOC(=O)[C@H](C)C[C@@H](Cc1ccc(-c2ccccc2)cc1)NC(=O)CCC(=O)O
urea iAUC (female C57BL/6JRj mice; oral, 0.7 nmol/g, with: amino acids 34 mg oral): 737 ± 190 mmol·min/L

CC(C)C[C@H](NC(=O)[C@H](CO)NC(=O)[C@H](CCCNC(=N)N)NC(=O)[C@H](CC(=O)O)NC(=O)[C@H](CCC(=O)O)NC(=O)[C@H](C)NC(=O)[C@@H]1CCCN1C(=O)[C@H](C)NC(=O)[C@H](CCC(=O)O)NC(=O)[C@@H]1CCCN1C(=O)[C@@H]1CCCN1)C(N)=O
dopamine level (HPLC-EC; F344 rat, normal, substantia nigra; intranasal, 300 µg, 5 days/week, 3 weeks): 815 ± 83 ng/g

CC(=O)Nc1cccc(OCc2nnc(SCc3ccccc3)o2)c1
immobility duration decrease (forced swimming test; mice; 40 mg/kg, 0.5 h; baseline: control): 39.6%

CC(C)n1cnc(-c2ccc(F)cc2)c1-c1ncc(C(=O)Nc2ccc(N3CCN(C)CC3)cc2)[nH]1
differentially abundant proteins (Olink proteomics; IPF patients, serum; 30 mg once daily, adjusted p below 0.05, unit not given; baseline: placebo): 1

O=C(NC[C@H]1CN(c2ccc(N3CCOCC3=O)cc2)C(=O)O1)c1ccc(Cl)s1
prothrombin time AUC(0-48h) increase (human, moderate renal impairment, plasma; oral, 10 mg, with: erythromycin at steady state; baseline: normal renal function, compound alone): ~70%

VQWRAIRVRVIR
leakage (carboxyfluorescein release; peptide, EYPC vesicles; 10 µg/mL, 250 s, pH 7.4, 25 °C; baseline: Triton X-100): 1%

CNCCC(Oc1ccc(C(F)(F)F)cc1)c1ccccc1 (centres unmarked)
immobility duration decrease (forced swimming test; mice; 40 mg/kg, 0.5 h; baseline: control): 57%

COc1cccc(-c2cc(F)ccc2[C@H]2Cc3nc(N)nc(C)c3C(=O)N2)n1
partial metabolic response rate (FDG-PET, SUVmax reduction; human, advanced solid tumours; dose not given, reduction at least 25%; baseline: baseline): 17%

CCC1SC(NN=C2c3ccccc3-c3nc4cc(F)ccc4nc32)=NC1=O (centres unmarked)
blood glucose (mouse, STZ-induced diabetes; oral, 25 mg/kg, day 3): 313 ± 23.8 mg/dL

CCCCCCCCCCCCCCCC(=O)NCCCC[C@H](NC(=O)[C@H](CCC(=O)O)NC(=O)[C@H](CCC(=O)O)NC(=O)[C@H](Cc1ccc(O)cc1)NC(=O)[C@H](CCC(=O)O)NC(=O)CCCCCNC(=S)Nc1ccc2c(c1)C(=O)OC21c2ccc(O)cc2Oc2cc(O)ccc21)C(=O)N[C@@H](Cc1ccc(O)cc1)C(=O)N[C@@H](CCC(=O)O)C(=O)NCC(=O)NCC(=O)NCC(=O)NCC(=O)N[C@@H](CO)C(=O)NCC(=O)NCC(=O)NCC(=O)NCC(=O)N[C@@H](CO)C(=O)N[C@@H](Cc1ccccc1)C(=O)N[C@@H](CC(N)=O)C(=O)N1CCC[C@H]1C(=O)N[C@@H](CCCNC(=N)N)C(=O)N[C@@H](Cc1c[nH]cn1)C(=O)NC(C)(C)C(=O)N[C@@H](CCC(=O)O)C(=O)NCC(=O)N[C@H](C(=O)N[C@@H](Cc1ccccc1)C(=O)N[C@H](C(=O)N[C@@H](CO)C(=O)N[C@@H](CC(=O)O)C(=O)N[C@H](C(=O)N[C@@H](CO)C(=O)N[C@@H](CO)C(=O)N[C@@H](Cc1ccc(O)cc1)C(=O)N[C@@H](CC(C)C)C(=O)N[C@@H](CCC(=O)O)C(=O)NCC(=O)N[C@@H](CCC(N)=O)C(=O)N[C@@H](C)C(=O)N[C@@H](C)C(=O)N[C@@H](CCCCN)C(=O)N[C@@H](CCC(=O)O)C(=O)N[C@@H](Cc1ccccc1)C(=O)N[C@H](C(=O)N[C@@H](C)C(=O)N[C@@H](Cc1c[nH]c2ccccc12)C(=O)N[C@@H](CC(C)C)C(=O)N[C@H](C(=O)N[C@@H](CCCCN)C(=O)NCC(=O)N[C@@H](CCCNC(=N)N)C(=O)NCC(=O)O)C(C)C)[C@@H](C)CC)C(C)C)[C@@H](C)O)[C@@H](C)O
LDL/HDL ratio (db/db mouse; subcutaneous, 90 nmol/kg twice weekly, 8 weeks): 0.35 ± 0.13

CCOc1ccc(Cc2cc([C@@H]3O[C@H](SC)[C@@H](O)[C@H](O)[C@H]3O)ccc2Cl)cc1
urinary glucose excretion (healthy Chinese subjects; oral, 400 mg once daily, 24 h, day 8): 47.5 g

CCOC(=O)c1sc(NN=C2c3ccccc3-c3nc4cc(F)ccc4nc32)nc1C
blood glucose (mouse, STZ-induced diabetes; oral, 25 mg/kg, day 3): 322 ± 35.5 mg/dL

CC12CCC(CC1)C(C)(C)O2
proportion of food consumed (two-choice feeding trial; Brachylagus idahoensis; 1% dry weight in diet, 72 h, with: monoterpene mixture 1% dry weight): 70 ± 0.08%
